Earlier results, collected from citations in different studies.
Protocols differ between the studies behind these lines. Numbers after ± are the reported error. ≈ marks a conversion by molar mass, not a printed value.
UniProt O35627, sequence (whole entry, unmodified, looked up): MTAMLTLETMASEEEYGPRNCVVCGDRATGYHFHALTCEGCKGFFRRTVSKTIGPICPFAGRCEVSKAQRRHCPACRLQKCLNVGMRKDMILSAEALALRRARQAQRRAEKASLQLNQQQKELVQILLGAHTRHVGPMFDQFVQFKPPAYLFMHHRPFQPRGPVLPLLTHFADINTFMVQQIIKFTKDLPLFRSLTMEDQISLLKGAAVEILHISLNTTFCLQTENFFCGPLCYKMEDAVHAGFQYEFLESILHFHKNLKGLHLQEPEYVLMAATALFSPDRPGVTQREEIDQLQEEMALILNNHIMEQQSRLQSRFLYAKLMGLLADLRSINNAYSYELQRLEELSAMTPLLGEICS

Compound	tested on	assay	system	conditions	how to read	measurement	result
CC1(C)C(C=C(Cl)Cl)C1C(=O)OCc1cccc(Oc2ccccc2)c1 (stereo not drawn)	Anopheles funestus		FUMOZ-R		baseline: FUMOZ-R over Anopheles gambiae Kisumu	resistance ratio	11.5
C[C@H](CCC(=O)O)[C@H]1CC[C@H]2[C@@H]3[C@@H](O)C[C@@H]4C[C@H](O)CC[C@]4(C)[C@H]3CC[C@]12C	Clostridioides difficile	spore germination	NAP1	20 min, added: taurocholate 2000 µM		complete inhibition concentration	500 µM
Nc1nc2c(ncn2[C@@H]2O[C@@H]3COP(=O)(O)O[C@H]3[C@H]2O)c(=O)[nH]1	PDE6	cyclic nucleotide hydrolysis, substrate or inhibitor, isothermal titration calorimetry				Km or Ki	10000 nM
CCOc1cccc(C(=O)Nc2ccc(-c3nc4ccccc4[nH]3)cc2)c1	Trypanosoma brucei rhodesiense		STIB 900			IC50	> 32000 nM
NCCCC(N)(C(=O)O)C(F)F (stereo not drawn)	Trypanosoma evansi	cell growth	Tansui			IC50	57200 ± 17600 nM
Clc1cc(Br)ccc1-c1ccc(CNCC2CCNCC2)o1	Trypanosoma brucei rhodesiense		STIB 900			IC50	100 nM
CN[C@H]1C(=O)N[C@@H]2Cc3ccc(cc3)Oc3cc4cc(c3O[C@@H]3O[C@H](C(=O)O)[C@@H](O)[C@H](O)[C@H]3NC(=O)CCCCCCCCC(C)C)Oc3ccc(cc3Cl)[C@@H](O)[C@@H]3NC(=O)[C@H](NC(=O)[C@@H]4NC(=O)[C@@H](NC2=O)c2cc(cc(O)c2Cl)Oc2cc1ccc2O)c1ccc(O)c(c1)-c1c(O[C@H]2O[C@H](CO)[C@@H](O)[C@H](O)[C@@H]2O)cc(O)cc1[C@@H](C(=O)NCCCN(C)C)NC3=O	Staphylococcus aureus		clinical isolates			MIC90	0.06 µg/mL (≈ 0.033 µM)
CC[C@H](C)[C@H](NC(=O)[C@H](CCCCN)NC(=O)[C@H](Cc1c[nH]cn1)NC(=O)[C@@H](N)CCCNC(=N)N)C(=O)N[C@@H](CC(C)C)C(=O)N[C@@H](Cc1c[nH]cn1)C(=O)N[C@@H](CCCNC(=N)N)C(=O)N[C@@H](CC(C)C)C(=O)N[C@@H](CC(C)C)C(=O)N[C@@H](CCC(N)=O)C(=O)N[C@@H](CCC(=O)O)C(=O)NCC(=O)N[C@@H](CO)C(=O)O	Nuclear receptor subfamily 1 group I member 3, with RXR (Mus musculus, UniProt O35627)	binding, isothermal titration calorimetry		pH 7.2, 25°C, added: TCPOBOP, fourfold excess		ΔH	-10 ± 0.3 kcal/mol
Cc1ccc(C(=O)Nc2ccc(S(=O)(=O)O)c3cc(S(=O)(=O)O)cc(S(=O)(=O)O)c23)cc1NC(=O)c1cccc(NC(=O)Nc2cccc(C(=O)Nc3cc(C(=O)Nc4ccc(S(=O)(=O)O)c5cc(S(=O)(=O)O)cc(S(=O)(=O)O)c45)ccc3C)c2)c1	Trypanosoma brucei brucei	cell growth	GUTat3.1			IC50	66 ± 5.2 nM
CN(C)c1ccc(O)c2c1C[C@H]1C[C@H]3[C@H](N(C)C)C(O)=C(C(N)=O)C(=O)[C@@]3(O)C(O)=C1C2=O	Brugia malayi	Wolbachia depletion above 90%	SCID mouse	exposure equivalent to human 100 mg/day		treatment duration	4 week
Nc1ncnc2c1ncn2[C@@H]1O[C@H](COS(=O)(=O)NC(=O)c2ccccc2O)[C@@H](O)[C@H]1O	Mycobacterium tuberculosis		H37Rv, iron-deficient GAS medium	pH 6.6		MIC	0.39 µM (≈ 0.182 µg/mL)
CC(C)c1cnn2c(NCc3ccccc3-n3cccn3)nc(OC3CCCNC3)nc12 (stereo not drawn)	human cytomegalovirus	viral replication				EC50	9 nM
C[C@]12CC[C@@H]3c4ccc(O)cc4CC[C@H]3[C@@H]1CC[C@@H]2O	HT-22	cell protection		added: glutamate 10 mM		EC50	1360 nM
O=C(N[C@@H](Cn1ccnc1)c1ccc(Cl)cc1Cl)c1ccc(-c2nnc(-c3ccccc3)o2)cc1	Trypanosoma cruzi		Tulahuen, mouse, Chagas disease model	dose not given		cure rate	100%
N=C(N)c1ccc(OCCCCCOc2ccc(C(=N)N)cc2)cc1	Trypanosoma equiperdum	cell growth	IVM-t1			IC50	1.3 ± 0.3 nM
O=C1c2cccc3c2[C@H](CCC3)CN1[C@@H]1CN2CCC1CC2			healthy volunteers, plasma	oral, dose not given, netupitant-palonosetron combination, added: oral contraceptives		Tmax	3.92 h
FC(F)(F)c1cccc(CNC2CCN(CCc3ccccc3)CC2)c1	Trypanosoma brucei brucei		Squib 427			IC50	2700 nM
OC(Cn1cncn1)(Cn1cncn1)c1ccc(F)cc1F	Trichophyton rubrum		azole-resistant			MIC50	≥ 160 µM
Nc1nc2c(nc(Sc3ccc(Cl)cc3)n2C2O[C@@H]3COP(=O)(O)O[C@H]3[C@H]2O)c(=O)[nH]1 (stereo in doubt)	PDE6	cyclic nucleotide hydrolysis, substrate or inhibitor, isothermal titration calorimetry				Km or Ki	41300 nM
COCCNC(=O)c1ccc(OC2CCN(Cc3ccc(F)c(F)c3)CC2)c(Cl)c1	Trypanosoma brucei brucei		Squib 427			IC50	> 32000 nM
C[C@](C#N)(COc1cc(C#N)ccc1C(F)(F)F)NC(=O)c1ccc(SC(F)(F)F)cc1	gastrointestinal nematodes		resistant to benzimidazoles or levamisole, sheep	oral, dose not given		efficacy	> 95%
CCC(C)c1c(O)ccc2c1CC[C@@H]1[C@@H]2CC[C@]2(C)C(=O)CC[C@@H]12 (stereo partly drawn)	HT-22	cell protection		added: iodoacetic acid 20 µM		EC50	680 nM
Cc1ccc(C(=O)c2oc3ccc4c(C)cc(=O)oc4c3c2C)cc1	Trypanosoma brucei brucei		Squib 427			IC50	> 32000 nM
CO/N=C1\CN(c2nc3c(cc2F)c(=O)c(C(=O)O)cn3C2CC2)CC1CN (stereo not drawn)	Streptococcus pneumoniae					MIC90	0.03 µg/mL (≈ 0.077 µM)

A few entries again:
Compound	tested on	assay	system	conditions	how to read	measurement	result
O=C1c2cccc3c2[C@H](CCC3)CN1[C@@H]1CN2CCC1CC2			healthy volunteers, plasma	oral, dose not given, netupitant-palonosetron combination, added: oral contraceptives		Tmax	3.92 h
